Experimental data pooled from the literature.
Protocols differ between the studies behind these lines. Numbers after ± are the reported error.
LGB: Beta-lactoglobulin (LGB, Bos taurus, UniProt P02754)
Chain of UniProt P02754 (whole entry, looked up): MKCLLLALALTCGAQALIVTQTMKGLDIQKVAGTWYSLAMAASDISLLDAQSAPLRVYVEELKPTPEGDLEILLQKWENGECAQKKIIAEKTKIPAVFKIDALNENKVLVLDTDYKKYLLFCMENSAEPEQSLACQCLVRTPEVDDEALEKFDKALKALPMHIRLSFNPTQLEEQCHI
MAL12: Alpha-glucosidase MAL12 (MAL12, Saccharomyces cerevisiae S288c, UniProt P53341)
Chain of UniProt P53341 (whole entry, looked up): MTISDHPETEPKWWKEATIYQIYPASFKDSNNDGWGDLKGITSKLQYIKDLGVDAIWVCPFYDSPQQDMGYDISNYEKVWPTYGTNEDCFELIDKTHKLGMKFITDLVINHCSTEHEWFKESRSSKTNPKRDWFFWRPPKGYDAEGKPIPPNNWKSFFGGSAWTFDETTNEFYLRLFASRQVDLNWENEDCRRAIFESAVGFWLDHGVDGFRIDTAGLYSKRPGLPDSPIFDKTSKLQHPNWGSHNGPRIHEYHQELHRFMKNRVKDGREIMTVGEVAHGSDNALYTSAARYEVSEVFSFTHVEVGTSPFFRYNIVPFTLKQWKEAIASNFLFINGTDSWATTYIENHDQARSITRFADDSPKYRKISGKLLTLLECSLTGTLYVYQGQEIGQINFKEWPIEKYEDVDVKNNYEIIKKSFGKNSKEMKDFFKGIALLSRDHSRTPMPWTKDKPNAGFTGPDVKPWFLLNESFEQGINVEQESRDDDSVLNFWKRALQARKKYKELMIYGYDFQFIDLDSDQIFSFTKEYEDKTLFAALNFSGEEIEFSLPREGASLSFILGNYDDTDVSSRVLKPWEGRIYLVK
WWOX WW1 domain: WW domain-containing oxidoreductase, WW1 domain (WWOX, Homo sapiens, UniProt Q9NZC7)
Chain of UniProt Q9NZC7 (whole entry, looked up): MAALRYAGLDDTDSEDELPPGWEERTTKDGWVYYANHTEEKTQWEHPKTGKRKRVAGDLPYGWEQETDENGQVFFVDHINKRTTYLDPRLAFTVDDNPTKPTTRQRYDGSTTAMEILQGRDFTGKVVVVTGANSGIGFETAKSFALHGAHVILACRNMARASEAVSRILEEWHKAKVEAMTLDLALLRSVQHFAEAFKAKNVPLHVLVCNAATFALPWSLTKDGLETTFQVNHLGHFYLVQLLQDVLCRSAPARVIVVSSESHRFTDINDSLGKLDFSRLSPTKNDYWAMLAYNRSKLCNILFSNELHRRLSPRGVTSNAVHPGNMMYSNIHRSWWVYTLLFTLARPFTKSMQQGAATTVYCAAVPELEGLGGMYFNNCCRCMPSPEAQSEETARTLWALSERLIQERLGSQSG
Chain of UniProt Q15858 (whole entry, looked up): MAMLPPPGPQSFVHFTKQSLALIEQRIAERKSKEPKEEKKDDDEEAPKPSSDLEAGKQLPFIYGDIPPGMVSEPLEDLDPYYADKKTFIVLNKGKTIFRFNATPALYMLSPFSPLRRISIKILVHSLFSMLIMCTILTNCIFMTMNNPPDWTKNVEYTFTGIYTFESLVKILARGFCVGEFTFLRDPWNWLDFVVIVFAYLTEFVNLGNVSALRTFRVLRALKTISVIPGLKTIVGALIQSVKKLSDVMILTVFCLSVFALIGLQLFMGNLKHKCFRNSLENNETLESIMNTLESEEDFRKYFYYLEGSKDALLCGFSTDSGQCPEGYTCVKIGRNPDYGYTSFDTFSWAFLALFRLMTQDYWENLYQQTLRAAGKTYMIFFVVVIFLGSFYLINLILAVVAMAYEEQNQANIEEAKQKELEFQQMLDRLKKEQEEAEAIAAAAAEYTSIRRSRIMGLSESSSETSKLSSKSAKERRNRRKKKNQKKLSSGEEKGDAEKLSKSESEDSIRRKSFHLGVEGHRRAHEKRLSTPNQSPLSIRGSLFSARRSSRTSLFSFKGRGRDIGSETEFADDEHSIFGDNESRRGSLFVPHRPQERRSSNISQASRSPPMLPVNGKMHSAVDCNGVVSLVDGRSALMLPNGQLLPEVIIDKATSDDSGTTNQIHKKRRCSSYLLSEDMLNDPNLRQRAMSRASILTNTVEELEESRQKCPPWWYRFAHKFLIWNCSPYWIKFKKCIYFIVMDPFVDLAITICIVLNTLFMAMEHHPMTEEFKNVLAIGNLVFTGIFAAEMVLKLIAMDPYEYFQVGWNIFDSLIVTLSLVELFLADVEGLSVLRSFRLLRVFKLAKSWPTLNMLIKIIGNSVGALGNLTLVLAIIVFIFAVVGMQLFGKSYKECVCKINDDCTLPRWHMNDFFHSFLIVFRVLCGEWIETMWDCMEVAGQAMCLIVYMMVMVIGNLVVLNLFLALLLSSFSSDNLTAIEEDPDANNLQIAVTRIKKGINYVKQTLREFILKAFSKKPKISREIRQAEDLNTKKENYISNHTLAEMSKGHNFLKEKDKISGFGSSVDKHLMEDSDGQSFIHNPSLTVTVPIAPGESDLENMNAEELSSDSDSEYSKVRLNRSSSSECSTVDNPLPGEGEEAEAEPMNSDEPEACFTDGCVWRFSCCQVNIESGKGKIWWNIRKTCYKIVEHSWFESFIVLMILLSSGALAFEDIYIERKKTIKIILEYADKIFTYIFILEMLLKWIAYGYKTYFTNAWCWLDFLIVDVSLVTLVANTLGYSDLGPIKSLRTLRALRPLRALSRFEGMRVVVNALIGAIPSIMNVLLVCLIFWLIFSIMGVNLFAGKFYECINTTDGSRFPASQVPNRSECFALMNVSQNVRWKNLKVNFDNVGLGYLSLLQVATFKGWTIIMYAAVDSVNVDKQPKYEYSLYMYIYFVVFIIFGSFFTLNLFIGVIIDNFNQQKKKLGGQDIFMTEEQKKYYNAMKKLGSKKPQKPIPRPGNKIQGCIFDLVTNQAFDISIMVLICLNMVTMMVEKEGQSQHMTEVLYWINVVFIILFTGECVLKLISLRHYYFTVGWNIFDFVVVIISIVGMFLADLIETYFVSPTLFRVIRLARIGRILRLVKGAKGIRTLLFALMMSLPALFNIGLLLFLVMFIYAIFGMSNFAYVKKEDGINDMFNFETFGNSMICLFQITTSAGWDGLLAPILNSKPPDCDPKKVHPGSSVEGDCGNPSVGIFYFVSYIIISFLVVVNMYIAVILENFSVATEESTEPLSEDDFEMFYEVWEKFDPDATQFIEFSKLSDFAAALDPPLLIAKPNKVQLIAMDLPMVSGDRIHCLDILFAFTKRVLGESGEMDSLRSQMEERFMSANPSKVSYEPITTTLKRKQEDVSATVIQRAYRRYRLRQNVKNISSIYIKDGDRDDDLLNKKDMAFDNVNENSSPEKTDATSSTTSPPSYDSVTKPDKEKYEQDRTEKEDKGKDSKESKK
Chain of UniProt Q8K424 (whole entry, looked up): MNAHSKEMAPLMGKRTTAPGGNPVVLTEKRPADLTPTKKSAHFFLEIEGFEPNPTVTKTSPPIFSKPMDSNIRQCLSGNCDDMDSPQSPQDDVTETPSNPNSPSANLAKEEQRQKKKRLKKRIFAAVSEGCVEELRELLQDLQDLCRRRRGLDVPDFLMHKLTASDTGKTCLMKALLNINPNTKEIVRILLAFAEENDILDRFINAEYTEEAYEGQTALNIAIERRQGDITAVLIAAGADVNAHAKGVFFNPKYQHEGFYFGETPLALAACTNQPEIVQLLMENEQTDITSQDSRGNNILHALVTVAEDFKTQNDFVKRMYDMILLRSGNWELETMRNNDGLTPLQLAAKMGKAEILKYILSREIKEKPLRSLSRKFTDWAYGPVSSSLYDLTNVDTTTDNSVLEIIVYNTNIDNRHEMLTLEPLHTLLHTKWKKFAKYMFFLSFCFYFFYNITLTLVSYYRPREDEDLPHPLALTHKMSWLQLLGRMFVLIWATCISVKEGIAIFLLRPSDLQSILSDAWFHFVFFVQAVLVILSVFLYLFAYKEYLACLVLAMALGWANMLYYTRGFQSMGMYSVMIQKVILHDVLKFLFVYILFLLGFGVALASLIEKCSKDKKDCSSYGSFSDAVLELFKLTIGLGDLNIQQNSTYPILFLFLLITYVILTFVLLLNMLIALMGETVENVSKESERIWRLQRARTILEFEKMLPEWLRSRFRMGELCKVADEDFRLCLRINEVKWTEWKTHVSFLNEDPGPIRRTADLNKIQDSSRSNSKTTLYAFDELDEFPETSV
Chain of UniProt P01899 (whole entry, looked up): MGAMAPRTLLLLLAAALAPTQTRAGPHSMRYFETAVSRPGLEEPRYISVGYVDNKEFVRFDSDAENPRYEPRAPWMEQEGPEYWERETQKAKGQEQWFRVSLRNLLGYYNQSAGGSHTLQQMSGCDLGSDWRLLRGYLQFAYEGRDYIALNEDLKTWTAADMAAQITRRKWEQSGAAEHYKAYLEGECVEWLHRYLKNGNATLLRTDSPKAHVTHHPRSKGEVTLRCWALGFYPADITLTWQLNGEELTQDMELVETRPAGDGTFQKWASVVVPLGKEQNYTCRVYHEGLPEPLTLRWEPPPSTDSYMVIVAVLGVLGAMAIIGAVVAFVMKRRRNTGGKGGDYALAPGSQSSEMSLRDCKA
Chain of UniProt P07148 (whole entry, looked up): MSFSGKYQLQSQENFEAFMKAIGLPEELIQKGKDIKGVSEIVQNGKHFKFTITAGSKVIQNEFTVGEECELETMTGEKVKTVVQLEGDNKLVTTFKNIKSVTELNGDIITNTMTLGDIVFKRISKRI
Chain of UniProt P69905 (whole entry, looked up): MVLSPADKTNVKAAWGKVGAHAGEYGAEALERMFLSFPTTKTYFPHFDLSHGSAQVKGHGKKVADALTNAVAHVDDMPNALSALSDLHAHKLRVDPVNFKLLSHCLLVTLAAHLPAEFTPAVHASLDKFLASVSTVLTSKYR

Substance | target | assay | system | conditions | how to read | endpoint | result
C[N+](C)(C)C[C@@H](O)CC(=O)[O-] | Organic cation/carnitine transporter 2 (SLC22A5, Homo sapiens, UniProt O76082) | transporter uptake, inhibitor |  | 200 µM |  | inhibition | 89.9%
CC1=C(/C=C/C(C)=C/C=C/C(C)=C/C=C/C=C(C)/C=C/C=C(C)/C=C/C2=C(C)C[C@H](O)CC2(C)C)C(C)(C)C[C@H](O)C1 | LGB | surface plasmon resonance |  | 25 °C |  | Kd | 2.72 ± 0.03 µM
N[C@@H](CCC(=O)O)C(=O)O | Protein tweety homolog 2 (Ttyh2, Mus musculus, UniProt Q3TH73) | permeant anion, whole-cell patch clamp | HEK-293T co-expressing AQP4 | 70 mM, hypo-osmotic solution | relative to: compound over chloride | permeability ratio | ~0.26
DDLKQKACESRCTKL | human IgE | peptide microarray | peptide, peanut-allergic patient sera | concentration not given, 16 h, 4 °C |  | patients with IgE binding | 0%
COCc1ccc(C=O)o1 | Hemoglobin subunit alpha, with sickle beta chain (HBA1, Homo sapiens, UniProt P69905) | oxygen affinity | sickle red cell lysate | 2 mM | relative to: untreated | P50 change | 39.4 ± 8.3%
C=CC1=C(C)c2cc3[nH]c(cc4nc(cc5[nH]c(cc1n2)c(C)c5CCC(=O)O)C(CCC(=O)O)=C4C)c(C)c3C=C | LGB | fluorescence quenching |  | pH 7.4, 27 °C |  | binding constant | 18600 M⁻¹
COC(=O)c1scc(C)c1NC(=O)C(C)NCCN1CCOCC1 (stereo not drawn) | Sodium channel protein type 9 subunit alpha (SCN9A, Homo sapiens, UniProt Q15858) | cell membrane chromatography |  |  | higher = stronger binding | capacity factor k′ | 104
CC(=O)N[C@@H]1[C@@H](O)[C@H](O[C@@H]2O[C@H](CO)[C@@H](O[C@@H]3O[C@H](CO[C@H]4O[C@H](CO[C@H]5O[C@H](CO)[C@@H](O)[C@H](O)[C@@H]5O)[C@@H](O)[C@H](O[C@H]5O[C@H](CO)[C@@H](O)[C@H](O)[C@@H]5O[C@H]5O[C@H](CO)[C@@H](O)[C@H](O)[C@@H]5O)[C@@H]4O)[C@@H](O)[C@H](O[C@H]4O[C@H](CO)[C@@H](O)[C@H](O)[C@@H]4O[C@H]4O[C@H](CO)[C@@H](O)[C@H](O)[C@@H]4O)[C@@H]3O)[C@H](O)[C@H]2NC(C)=O)[C@@H](CO)O[C@H]1NC(=O)C[C@H](N)C(=O)O | NT1 (Nicotiana tabacum, UniProt Q94EW1) | glycan binding, glycan array |  | together with: Alexa 488-labelled lectin 150 µg/mL |  | fluorescence | 30900 RFU
O=S1(=O)c2ccc(F)cc2Oc2cc(OCC(F)(F)F)ccc21 | Amine oxidase [flavin-containing] A (MAOA, Homo sapiens, UniProt P21397) | [11C]clorgyline PET | human | oral, 80 mg vs 20 mg, 2 h |  | inhibition difference | 53.8%
Clc1cccc(Nc2nnc(-c3ccccc3)c3ccccc23)c1 | cGMP-dependent 3',5'-cyclic phosphodiesterase (PDE2A, Homo sapiens, UniProt O00408) | cGMP hydrolysis, inhibitor, fluorescence polarization | recombinant enzyme | up to 100 µM, 30 min preincubation, 30 °C, together with: TAMRA-cGMP 25 nM |  | IC50 | inactive
YVQKNGGKL | H-2 class I histocompatibility antigen, D-B alpha chain, 17 (H2-D1, Mus musculus, UniProt P01899) | H2-D binding, flow cytometry | peptide, RMA-S | 10 µg per 100 µL, 3 h |  | MFI increase | 191%
COc1ccccc1CNCCCCCCNCCCCCCCCNCCCCCCNCc1ccccc1OC | Alpha-synuclein, oligomers (SNCA, Homo sapiens, UniProt P37840) | oligomer-vesicle binding, FIDA |  | 5 µM, together with: 150 nM oligomers, 50 µM DOPG liposomes |  | liposome-bound oligomers | 0%
O=c1cc(-c2ccc(O)c(O)c2)oc2cc(O)cc(O)c12 | Kcnh1 (Mus musculus, UniProt Q60603) | inside-out patch clamp | Xenopus oocytes | 10 µM |  | V1/2 shift | -11 ± 2.5 mV
O=C(O)c1cccc2cccnc12 | PY04617 (Plasmodium yoelii, UniProt Q7RFT5) | ultrafiltration HPLC-UV |  | 0.1 mM, pH 7.25, 4 °C, 6.5% DMSO, together with: methionine competitor |  | UV signal reduction | 70.4 ± 2.7%
CCCCCCCCCCCC(=O)O | chemosensory protein 3 (Chilo suppressalis, UniProt V9PY40) | binding, competitive ligand, fluorescence competitive binding |  | highest concentration tested, pH 7.4, protein 2 µM, together with: 1-NPN 2 µM | relative to: no ligand | remaining 1-NPN fluorescence | 72.5 ± 2.04%
NCCOB(c1ccccc1)c1ccccc1 | Transient receptor potential cation channel subfamily V member 3 (Trpv3, Mus musculus, UniProt Q8K424) | agonist, Fluo-4 calcium | HEK293 transfected |  | relative to: pH 7.4 over pH 5.6 | EC50 ratio | ~15 fold
COc1cc2c(=O)c(OC)c(-c3ccccc3)oc2c(O)c1OC | MAL12 | enzyme activity, inhibitor |  | 250 µM |  | inhibition | > 99%
CCCCC/C=C\C/C=C\C/C=C\C/C=C\CCCC(=O)OC(CO)CO | Fatty acid-binding protein, liver (FABP1, Homo sapiens, UniProt P07148) | binding, DAUDA displacement |  | concentration not given | relative to: no competitor | remaining fluorescence | 65 ± 1.3%
COc1cc2oc(-c3ccc(O)cc3)cc(=O)c2c(O)c1OC | MAL12 | enzyme activity, inhibitor, absorbance |  | 50 µM |  | inhibition | 86.6%
CSCC[C@H](NC(=O)[C@@H]1CCCN1C(=O)[C@@H](NC(=O)[C@H](Cc1ccc(O)cc1)NC(=O)[C@H](C)NC(=O)[C@@H]1CCCN1C(=O)[C@@H]1CCCN1C(=O)[C@@H]1CCCN1C(=O)[C@H](CO)NC(=O)[C@H](Cc1c[nH]cn1)NC(=O)CN)[C@@H](C)O)C(=O)N[C@@H](CO)C(=O)O | WWOX WW1 domain | binding, ITC |  | pH 7.0, 25 °C |  | ΔH | -3.66 ± 0.33 kcal/mol
O=c1cc(-c2ccccc2)oc2cc(O)ccc12 | MAL12 | enzyme activity, inhibitor, absorbance |  | 100 µM |  | inhibition | 7.2%
COc1ccc(-c2cc(C(N)=O)nc3cc(CN4C(=O)CCC4=O)ccc23)c(F)c1 | Metabotropic glutamate receptor 2 (Grm2, Rattus norvegicus, UniProt P31421) | in vitro autoradiography | rat brain sections | concentration not given, radiolabelled compound, together with: blocker 1 µM | relative to: baseline | binding reduction | 50 to 60%
COc1ccc(-c2cc(=O)c3ccc(O)cc3o2)cc1 | MAL12 | enzyme activity, inhibitor, absorbance |  | 50 µM |  | inhibition | 16.3%
CC(C)C[C@H](NC(=O)[C@@H](NC(=O)[C@@H](N)[C@@H](C)O)C(C)C)C(=O)N1CCC[C@H]1C(=O)N1CCC[C@H]1C(=O)N1CCC[C@H]1C(=O)N1CCC[C@H]1C(=O)N[C@@H](Cc1ccc(O)cc1)C(=O)N[C@@H](CCCNC(=N)N)C(=O)N[C@@H](C)C(=O)N[C@@H](CCCNC(=N)N)C(=O)N[C@@H](CC(N)=O)C(=O)O | WWOX WW1 domain | binding to WW1 domain, isothermal titration calorimetry |  | pH 7.0, 25 °C |  | entropy term TΔS | -6.2 ± 1.48 kcal/mol

For quick reference, copied from above:
Substance | target | assay | system | conditions | how to read | endpoint | result
NCCOB(c1ccccc1)c1ccccc1 | Transient receptor potential cation channel subfamily V member 3 (Trpv3, Mus musculus, UniProt Q8K424) | agonist, Fluo-4 calcium | HEK293 transfected |  | relative to: pH 7.4 over pH 5.6 | EC50 ratio | ~15 fold
CC1=C(/C=C/C(C)=C/C=C/C(C)=C/C=C/C=C(C)/C=C/C=C(C)/C=C/C2=C(C)C[C@H](O)CC2(C)C)C(C)(C)C[C@H](O)C1 | LGB | surface plasmon resonance |  | 25 °C |  | Kd | 2.72 ± 0.03 µM
YVQKNGGKL | H-2 class I histocompatibility antigen, D-B alpha chain, 17 (H2-D1, Mus musculus, UniProt P01899) | H2-D binding, flow cytometry | peptide, RMA-S | 10 µg per 100 µL, 3 h |  | MFI increase | 191%
